Assay results collected from several papers.
Numbered parts are unrelated; each lists some results of a single study. Values joined by “and” are separate records of one study, mostly repeats; a detail may differ.

Block 1 — read-out: binding; technique: radioligand binding; concentration: 10 µM
Target: D(1B) dopamine receptor (DRD5, Homo sapiens, UniProt P21918)
SMILES	inhibition [%]
O=C(Nc1ccc(-n2nc(-c3cccnc3)cc2C(F)(F)F)cn1)c1ccc(-c2ccccc2)c(F)c1	-28.6
Cc1cc(C)c(-n2ccn3nc(-c4cccnc4)cc23)cc1NC(=O)c1cc(C#N)cc(S(F)(F)(F)(F)F)c1	-22.5
CC(=O)Nc1c(F)cc(C(=O)N[C@H]2CC[C@H](O)CC2)cc1O[C@@H](C)c1ccccc1	21.4
CS(=O)(=O)NCC[C@H](NC(=O)c1cncc2c1cnn2-c1ccc(F)cc1)c1ccnc(S(C)(=O)=O)c1	36
O[C@]1(C(F)(F)F)CCCC[C@H]1Nc1ccc(F)cc1	30.2

Block 2 — read-out: peptide-MHC binding; molecule type: peptide; concentration: concentration not given
Target: HLA class I histocompatibility antigen, A alpha chain, allele A*25:01 (Homo sapiens, UniProt P04439)
Sequence	binding
LQPSDTLLF	inactive
YMMDGNECP	inactive
VIMWYNYLF	inactive
RAWDPQPAM	inactive
SVIDHIHYM	active

Block 3 — technique: RNAcompete; molecule type: RNA; medium: in vitro; concentration: 20 nM; setting: 7-mer, probes averaged, single round; baseline: mean of 7-mers; reading: higher = stronger binding
Target: PABPC1L2, full length, GST fusion (mouse, UniProt A0ABA7IW68)
Sequence	7-mer Z-score
UCAUCUU	-0.374
GCGCGCC	-0.336
AACGUAA	0.209
UUCUUCC	-0.376
CGAUGAG	-0.0645
ACACAAC	0.0497
UGAUCGU	-0.238
CCCAAAU	-0.0718

Other studies, line by line
SMILES	cell line	technique	concentration	time	endpoint	value
CC(C)(C)c1cnc(CSc2cnc(NC(=O)C3CCN(CCCCCSc4cccc5c4CN(C4CCC(=O)NC4=O)C5=O)CC3)s2)o1 (stereo not shown)	HEK293T	trypan blue exclusion	1000 nM	24 h	viability	84.5% and 89.2% and 87.9%

For quick reference, copied from above (block 3):
Sequence	7-mer Z-score
GCGCGCC	-0.336
